{"data": "Experimental data of several laboratories", "note": "Protocols differ between the studies behind these lines. Several values in a cell are separate wells, animals, samples, runs or records. Numbers after ± are the reported error."}
{"Compound": "CN[C@H](CC(C)C)C(=O)N[C@H]1C(=O)N[C@@H](CC(N)=O)C(=O)N[C@H]2C(=N)N[C@H]3C(=O)N[C@H](C(=O)N[C@H](C(=O)NCCC[N+](C)(C)C)c4cc(O)cc(O)c4-c4cc3ccc4O)[C@H](O)c3ccc(c(Cl)c3)Oc3cc2cc(c3O[C@@H]2O[C@H](CO)[C@@H](O)[C@H](O)[C@H]2O[C@H]2C[C@](C)(NCc3ccc(-c4ccc(Cl)cc4)cc3)[C@H](O)[C@H](C)O2)Oc2ccc(cc2Cl)[C@H]1O", "host": "mouse", "route": "intravenous", "dose": "10 mg/kg", "Cmax": "85900 ng/mL"}
{"Compound": "O=c1c(-c2cnn(-c3ccc(Cl)cc3)c2)c(C(F)(F)F)oc2c(O)c(O)ccc12", "host": "mouse", "route": "intraperitoneal", "dose": "100 mg/kg", "notes": "DMSO vehicle", "Cmax": "35.6 µM"}
{"Compound": "Cc1ccc(=O)n(-c2ccc(O)cc2)c1", "host": "BALB/c mouse", "medium": "plasma", "route": "oral", "dose": "1.0 mmol/kg", "Cmax": "23.4 ± 7.82 µM"}
{"Compound": "O=C(c1ccccc1)N1C(c2ccc(OCC3CCN(CCCF)C3)cc2)c2ccc(O)cc2CC12CC2 (centres unmarked)", "host": "C57BL/6J mouse", "medium": "plasma", "route": "oral", "dose": "25 mg/kg", "Cmax": "811 ng/mL and 771 ng/mL"}
{"Compound": "Cc1[nH]nc2c1N=C(c1ccccc1Cl)c1cnc(N3CCOCC3)cc1N2", "host": "nude mouse, HCC1806 xenograft", "medium": "tumor", "route": "oral", "dose": "15 mg/kg once daily", "Cmax": "443 ng/mL"}
{"Compound": "CC(C)[C@@H](C)Nc1nc(-c2cccs2)nc(Cl)c1-c1c(F)cc(F)cc1F", "host": "mouse", "medium": "plasma", "route": "intraperitoneal", "dose": "2.5 mg/kg", "notes": "cassette dosing", "Cmax": "399 ng/mL"}
{"Compound": "O=S(=O)(NCc1ccncc1)c1ccc(C2CCCCC2)cc1", "host": "mouse (C57BL/6J, male)", "medium": "brain cerebral cortex", "route": "intraperitoneal", "dose": "0.3 mg/kg", "Cmax": "0.103 µM"}
{"Compound": "O=S(=O)(N[C@H]1CCC[C@@H](N2c3ccccc3CCc3ccccc32)[C@@H]1O)c1ccc(OC(F)(F)F)cc1", "host": "mouse", "medium": "plasma", "route": "oral", "dose": "100 mg/kg", "notes": "suspension", "Cmax": "1200 ng/mL"}
{"Compound": "CN[C@H](CC(C)C)C(=O)N[C@H]1C(=O)N[C@@H](CC(N)=O)C(=O)N[C@H]2CN[C@H]3C(=O)N[C@H](C(=O)N[C@H](C(=O)NCCCNC(=N)N)c4cc(O)cc(O)c4-c4cc3ccc4O)[C@H](O)c3ccc(c(Cl)c3)Oc3cc2cc(c3O[C@@H]2O[C@H](CO)[C@@H](O)[C@H](O)[C@H]2O[C@H]2C[C@](C)(NCc3ccc(-c4ccc(Cl)cc4)cc3)[C@H](O)[C@H](C)O2)Oc2ccc(cc2Cl)[C@H]1O", "host": "mouse", "route": "intravenous", "dose": "50 mg/kg", "Cmax": "179000 ng/mL"}
{"Compound": "Fc1cccc(-n2cc(-c3ccccc3)nc2NCc2ccc(C(F)(F)F)c(Br)c2)c1", "host": "CD-1 mouse, male", "medium": "intestine", "route": "intraperitoneal", "dose": "25 mg/kg", "Cmax": "167000 ng/g"}
{"Compound": "Cc1ccc(OCC(=O)N(Cc2cccs2)c2ccn[nH]2)cc1", "host": "male CD-1 mouse", "medium": "plasma", "route": "oral", "dose": "30 mg/kg", "Cmax": "0.382 µM"}
{"Compound": "C/C(N)=N/C(=N\\S(=O)(=O)c1ccc(C(F)(F)F)cc1)N1C[C@H](c2ccccc2)C(c2ccc(Cl)cc2)=N1", "host": "C57BL/6 mouse male", "medium": "adipose tissue", "route": "intravenous", "dose": "10 mg/kg", "Cmax": "9830 ng/mL"}
{"Compound": "O=C(Cc1ccc(OCc2ccccc2)cc1)NC1(C(=O)O)CCN(C(=O)c2ccc(-c3cccc(Cl)c3)cc2)CC1", "host": "mouse BALB/c female", "route": "intraperitoneal", "dose": "20 mg/kg", "Cmax": "3470 ± 400 ng/mL"}
{"Compound": "Cc1nn(-c2nc3c(F)cc(F)cc3s2)c(O)c1C(c1ccc(C(F)(F)F)cc1)c1c(C)nn(-c2nc3c(F)cc(F)cc3s2)c1O", "host": "ICR mouse", "medium": "plasma", "route": "intraperitoneal", "dose": "10 mg/kg", "Cmax": "4320 ng/mL and 4370 ng/mL and 4550 ng/mL"}
{"note": "A few entries again:"}
{"Compound": "Fc1cccc(-n2cc(-c3ccccc3)nc2NCc2ccc(C(F)(F)F)c(Br)c2)c1", "host": "CD-1 mouse, male", "medium": "intestine", "route": "intraperitoneal", "dose": "25 mg/kg", "Cmax": "167000 ng/g"}
